Experimental data pooled from the literature.
Parts stem from different laboratories: compare values within a part only.

Study 1
Target: Prothrombin, mature alpha-thrombin (F2, Homo sapiens, UniProt P00734)
Method: aptamer microarray, sandwich
Molecule type: DNA with 2'F-ANA
Matrix: in vitro
Tested at: 200 nM
Notes: whole 15-mer aptamer, many near background
Added: Cy3 exosite-II aptamer, 400 nM
Reading: higher = stronger binding
Strand: GGTTGGTGTGGTTGG
Modification	mean fluorescence intensity [a.u.]
2'F-ANA at 1 3 6 8 11 15	447
2'F-ANA at 1 2 3 5 8 9 10 11 13 15	48.1
2'F-ANA at 1 4 5 6 8 9 10 11 13 14	58.9
2'F-ANA at 4 6 10 12 14	59
2'F-ANA at 1 3 9 10 13 14	58.5
2'F-ANA at 1 5 6 8 10 11 12 13 14 15	76.6
2'F-ANA at 8 9 12	940
2'F-ANA at 1 2 3 4 5 6 7 9 10 11 12 14	53.5
2'F-ANA at 1 2 3 5 7 10 11 12	63.2
2'F-ANA at 1 3 8 9 10 11 14	65.2
2'F-ANA at 2 4 7 9 10 11 13 14	148
2'F-ANA at 1 3 6 7 9 10 11 12 13 15	88.7
2'F-ANA at 3 4 14	364
2'F-ANA at 2 5 6 9 11 13 14 15	48.5
2'F-ANA at 1 6 7 14 15	59.3
2'F-ANA at 2 3 4 6 7 8 9 11 12 13 14 15	212
2'F-ANA at 2 4 10 11 12 13 14	62.3
2'F-ANA at 1 5 7 8 9 12 13	81.9
2'F-ANA at 4 5 6 7 10 11 13 15	50.8
2'F-ANA at 1 2 3 5 7 10 11 13 15	48.1
2'F-ANA at 3 5 7 8 9 10 11 14 15	69.8
2'F-ANA at 1 3 4 5 7 9 15	57.8
2'F-ANA at 1 2 3 5 6 7 8 9 10 15	48.3
2'F-ANA at 1 2 4 7 9	207

Study 2
Target: Interferon regulatory factor 3, full length, phosphomimetic (IRF3, Homo sapiens, UniProt Q14653, residues 1-427, S386D/S396D/S398D/S402D/T404D/S405D)
Method: protein-binding microarray
Molecule type: double-stranded DNA, one strand shown
Matrix: in vitro
Tested at: 2540 nM top
Notes: 60-bp whole probe
Added: salmon DNA 0.4 mg/ml
Baseline: random background probes
Reading: higher = stronger binding
Constant ends, left off below: GCCTAGCAC … GTCTTGATTCGCTTGACGCTGCTG
Target sequence (chain): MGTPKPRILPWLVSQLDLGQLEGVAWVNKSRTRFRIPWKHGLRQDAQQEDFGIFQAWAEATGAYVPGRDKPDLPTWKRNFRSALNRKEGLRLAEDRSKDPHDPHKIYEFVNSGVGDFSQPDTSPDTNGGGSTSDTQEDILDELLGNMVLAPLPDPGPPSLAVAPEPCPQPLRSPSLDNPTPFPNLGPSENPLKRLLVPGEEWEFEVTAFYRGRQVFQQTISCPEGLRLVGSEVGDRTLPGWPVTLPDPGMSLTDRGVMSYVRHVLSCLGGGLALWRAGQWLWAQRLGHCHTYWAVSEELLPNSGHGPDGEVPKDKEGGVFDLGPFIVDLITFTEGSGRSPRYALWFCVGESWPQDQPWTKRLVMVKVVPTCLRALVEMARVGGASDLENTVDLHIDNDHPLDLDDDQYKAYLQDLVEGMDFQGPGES
Strand	fitted relative affinity
TTAGATCTCAGTCTCGATCAGTGCTAG	0.444 z-score
GACGGACTGGAATTTCGGGACGTGCTA	-0.0287 z-score
TTAGGTTTCGGTTCCGGTAAGTGCTAG	11.4 z-score
GTCGATATCGGGACTGGAGACGTGCTA	1 z-score
TTAGGACTGCTTATCCTTAAGTGCTAG	0.000444 z-score
GACGGTTTCGGTTCCGGTACGTGCTAG	10.7 z-score
TTAGGTATGCTTTTCCTTTAGTGCTAG	1.25 z-score
TCATGGATGTGTTTTAAACTGTGCTAG	-0.424 z-score
CCCAATCTCTCTTCACATATGTGCTAG	2.03 z-score
GCCCCTCTCCTCTCAGGAGCTGTGCTA	0.687 z-score
TTAGGACTCGGTATCGGTTAGTGCTAG	1.72 z-score
AAGTTTCTCCTTTCCAAATAGTGCTAG	5.02 z-score
GACGAGATCAGACTGGAGACGTGCTAG	-0.181 z-score
TTAGAACTGCGACTGGATTAGTGCTAG	-0.558 z-score
TCCCCTCTAGGTCTTCTGAAGTGCTAG	0.185 z-score
TCAGATGTGGGACTCACACTGTGCTAG	-0.416 z-score

Study 3
Target: RNA binding protein fox-1 homolog 2, RRM domain, GST-SBP tag (RBFOX2, Homo sapiens, UniProt O43251-10, residues 100-194)
Method: RNA Bind-n-Seq
Molecule type: RNA
Matrix: in vitro
Tested at: 365 nM
Notes: natural RNA segment, single round, ends assumed
Baseline: no-protein control
Reading: higher = stronger binding
Construct (chain): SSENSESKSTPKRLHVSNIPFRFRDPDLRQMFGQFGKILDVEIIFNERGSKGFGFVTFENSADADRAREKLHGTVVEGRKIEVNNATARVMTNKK
Strand	RBNS enrichment (R)
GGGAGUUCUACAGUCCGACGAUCCAGCCAGGUGGCCUCACCUGCUGCCCAGAAUUAGGCUGUGCCUUUUCCCAGUCCUUCCCCAUGCCAGAGCCUCUCCCCAUCUUUCCCCGCGCCAGAGCCUCACAGCCACAUGGAAUUCUCGGGUGCCAA	0.411
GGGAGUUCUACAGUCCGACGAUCCCACAGCUUCCUUUGGAGGGGCAAGAAGUUGGCCUCUCGGUUGACAUUCCAGAGAAAUGGCCAGACUUGCCCCUACCCUUUUGCCCCUGGUGUAGCUGCCUCACAUGAGGUGGAAUUCUCGGGUGCCAA	0.291
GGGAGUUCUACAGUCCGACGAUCCGGUGGGUGUUCCAUUUUUAUCCGCUACUCUUUAUUUCAUGGAGUCGUAUCAACGCUAUGAACGCAAGGCUGUGAUAUGGAACCAGAAGGCUGUUUGAACUUUUGAAACCUGGAAUUCUCGGGUGCCAA	0.272
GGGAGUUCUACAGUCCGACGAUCGACCUCGACGUUGCCUUUAGACUACAGUUGUGUUAGCCUCUUGCGUAUUGGCUUUUUCAGAGUCAUUAUGAGCAGAAAAAAAAAAAGUAAAACUUUGCUAAUAUUAACCCUGGAAUUCUCGGGUGCCAA	0.334
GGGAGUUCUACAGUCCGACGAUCUUAUAGGUAUGAACCAACAUGCCCAGCUCUCUCUUCUCUCGUGAAGUCAUACCCUGUGAGUAACUGGCCUGUAAUGGCGCUCUUCCUAGGACAGUGGUGACCUUGUCUGUUGGAAUUCUCGGGUGCCAA	0.418
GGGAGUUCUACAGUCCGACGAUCUUGUAAAGAGCAAAAUUACUUUCAGGUCCCUUGUUGAGGGAACAGGUCAGCGUUAUCCUGCCAGACAUCUGGGUCAGGAACUUGGGAGACAACAUCUGCUUACCUGGCAGUGGAAUUCUCGGGUGCCAA	0.294
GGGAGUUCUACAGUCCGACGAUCCCUUAGACACCAAAUCCUUGCCUCUGGAGUGUAGCCACACACAACACAGAGAGUAACUGAAGCCUAUCUUAAGCAAAGAGAAACCACCCGUCCACUCUGGGGCUGCCCUAUGGAAUUCUCGGGUGCCAA	0.71
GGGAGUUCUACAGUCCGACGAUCCCUGCCAGCACACCGAUGCACACACCGGAAGUGGCGAGCCCAAGCCCUGGGGACAGGUGUAGGGAGAAAAGCAGCCCCAGGCCUCAGACUCGCUUCCCAUCCUGGCAUAGUGGAAUUCUCGGGUGCCAA	1.18
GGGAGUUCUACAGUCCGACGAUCGGUCAGCUAACUCUAGCUCAGGUUUGAGAACUCCUGUUGAGAAGAAGUGUGAGAUUUCUGCUUAAGAGAAGUUGUGAAAUUGCACUCCCAUCGAGGGUUCUGAGAGUGACUGGAAUUCUCGGGUGCCAA	0.625
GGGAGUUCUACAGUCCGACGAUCUCUGAUUCUCCGGGAGCCGUUCAAUGGUGAGGUUGAUGGGAAGACUUCCUUCCCAAAGAAAAUAGAUCCUCCAUGCAGGAUCUAGGAGAGUGACUGGGUGUGCCAAAAUAUGGAAUUCUCGGGUGCCAA	0.309
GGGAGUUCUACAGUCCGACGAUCUGUGAAAACAUUACAUACAUGUAUAUAUUUAGACAUGAGCUGCUGCUAUAUAUUGAAUGGGCCCUUUAGUUUUCUCUUAGUUCUGACCUGUAUAUAUUGCUUUAAUAGAGUGGAAUUCUCGGGUGCCAA	1.62
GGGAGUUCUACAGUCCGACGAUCAUCAUCAACCCCCAACCCUCUGGGUCUCUUGGAUUUCAGAGUGAAAACUUGAUUGGCAUUGAGAGGUGGAGCCAGGGGCUGAAGGAUGGGUCAGGAGGAGGGAGACAUGUUGGAAUUCUCGGGUGCCAA	0.619

Study 4
Target: Sal-like protein 4, full length isoform A (SALL4, Homo sapiens, UniProt Q9UJQ4, residues 1-1053)
UniProt Q9UJQ4, sequence (whole entry, looked up): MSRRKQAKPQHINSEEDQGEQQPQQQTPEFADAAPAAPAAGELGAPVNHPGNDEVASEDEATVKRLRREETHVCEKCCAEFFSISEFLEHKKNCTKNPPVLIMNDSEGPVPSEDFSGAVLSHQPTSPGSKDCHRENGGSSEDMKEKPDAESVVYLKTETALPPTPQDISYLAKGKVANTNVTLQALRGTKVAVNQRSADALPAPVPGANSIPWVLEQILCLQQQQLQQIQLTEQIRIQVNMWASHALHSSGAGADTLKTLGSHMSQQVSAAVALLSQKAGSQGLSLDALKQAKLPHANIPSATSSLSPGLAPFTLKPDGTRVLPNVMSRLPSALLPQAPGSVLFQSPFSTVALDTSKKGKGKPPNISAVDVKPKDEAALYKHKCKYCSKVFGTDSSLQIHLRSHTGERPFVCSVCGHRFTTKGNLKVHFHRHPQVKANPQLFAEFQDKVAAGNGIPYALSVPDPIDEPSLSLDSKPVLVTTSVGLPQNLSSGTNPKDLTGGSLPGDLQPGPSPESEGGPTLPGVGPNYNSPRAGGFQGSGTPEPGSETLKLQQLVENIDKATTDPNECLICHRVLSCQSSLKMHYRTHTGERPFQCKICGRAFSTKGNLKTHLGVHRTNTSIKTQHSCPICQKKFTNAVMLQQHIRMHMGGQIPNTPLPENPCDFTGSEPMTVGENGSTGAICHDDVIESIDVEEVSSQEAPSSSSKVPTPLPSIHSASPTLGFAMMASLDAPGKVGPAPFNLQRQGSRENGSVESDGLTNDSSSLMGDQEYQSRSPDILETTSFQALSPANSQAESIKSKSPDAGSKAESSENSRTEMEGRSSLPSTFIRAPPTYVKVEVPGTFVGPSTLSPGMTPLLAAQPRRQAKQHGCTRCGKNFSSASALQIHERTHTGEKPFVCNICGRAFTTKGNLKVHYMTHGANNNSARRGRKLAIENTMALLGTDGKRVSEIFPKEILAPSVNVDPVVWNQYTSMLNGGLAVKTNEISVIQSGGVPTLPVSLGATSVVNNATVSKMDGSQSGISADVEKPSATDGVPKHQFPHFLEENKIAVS
Method: universal PBM
Molecule type: double-stranded DNA, one strand shown
Matrix: in vitro
Tested at: 600 nM
Notes: 8-mer, flanks averaged, mean of replicates
Reading: higher = stronger binding
Strand	E-score
CAGAACCA	-0.0974
AGAACGAG	0.0542
AGCTGCTG	-0.205
ACGGCCCT	-0.293
AGTATGCA	0.0864
CATACAAC	0.146
AGATAGGA	0.106
AGTGAGAA	0.105
CGCAACGA	-0.124
AAGGGCGG	-0.298
ATGAATAG	0.241
CAAAAGGA	0.182
TGCTAAAA	0.101
AGCTAACG	-0.137
CAGCAGCC	-0.287
GCATAGCA	0.133
CCAACGCC	-0.271
ACTCACGC	-0.23
AAGTTGCT	-0.0341
CCGAGAAC	-0.14
ATGAGCGG	-0.0854
AGAGTCTA	0.179
ACGTTGCA	-0.0178
TCGTGGCA	0.0927
AGGAGAAC	-0.087
